Measurements pooled from the literature.
Protocols differ between the studies behind these lines. Values joined by “and” are separate records of one study, mostly repeats; a detail may differ. Numbers after ± are the reported error.
TDP1: Tyrosyl-DNA phosphodiesterase 1 (TDP1, Homo sapiens, UniProt Q9NUW8)
Sequence of UniProt Q9NUW8 (whole entry, looked up): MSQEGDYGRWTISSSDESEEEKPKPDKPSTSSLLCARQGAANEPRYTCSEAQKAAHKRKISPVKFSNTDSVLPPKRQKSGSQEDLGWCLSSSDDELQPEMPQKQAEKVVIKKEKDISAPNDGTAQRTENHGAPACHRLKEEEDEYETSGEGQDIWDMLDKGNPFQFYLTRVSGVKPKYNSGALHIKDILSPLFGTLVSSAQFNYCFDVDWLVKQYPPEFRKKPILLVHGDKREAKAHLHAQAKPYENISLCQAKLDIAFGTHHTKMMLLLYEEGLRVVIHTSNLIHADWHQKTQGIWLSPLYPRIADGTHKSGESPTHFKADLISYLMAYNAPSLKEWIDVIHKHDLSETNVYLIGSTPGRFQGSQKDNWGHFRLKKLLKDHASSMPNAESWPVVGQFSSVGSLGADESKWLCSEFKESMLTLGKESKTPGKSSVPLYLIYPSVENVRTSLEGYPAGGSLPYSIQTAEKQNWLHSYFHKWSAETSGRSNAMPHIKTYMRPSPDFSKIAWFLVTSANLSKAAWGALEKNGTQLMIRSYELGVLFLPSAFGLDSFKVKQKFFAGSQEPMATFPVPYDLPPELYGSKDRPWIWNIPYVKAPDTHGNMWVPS
Sequence of UniProt P0A7A9 (whole entry, looked up): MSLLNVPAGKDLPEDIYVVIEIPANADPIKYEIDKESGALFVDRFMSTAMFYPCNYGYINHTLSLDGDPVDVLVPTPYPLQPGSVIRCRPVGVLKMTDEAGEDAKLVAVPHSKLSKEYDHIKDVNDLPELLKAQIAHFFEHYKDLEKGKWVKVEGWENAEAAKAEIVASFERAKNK

Compound | tested on | assay | test system | conditions | scale | measurement | result
CN([O-])C(=O)CN1CCNCCN(CC(=O)N(C)[O-])CC1.[89Zr+4] |  |  | mouse, spleen | intravenous, 1 h |  | tracer uptake | 0.19 %ID/g
CN[C@H](CC(C)C)C(=O)N[C@H]1C(=O)N[C@@H](CC(N)=O)C(=O)N[C@H]2CN[C@H]3C(=O)N[C@H](C(=O)N[C@H](C(=O)NCCCNC(=N)N)c4cc(O)cc(O)c4-c4cc3ccc4O)[C@H](O)c3ccc(c(Cl)c3)Oc3cc2cc(c3O[C@@H]2O[C@H](CO)[C@@H](O)[C@H](O)[C@H]2O[C@H]2C[C@](C)(NCc3ccc(-c4ccc(Cl)cc4)cc3)[C@H](O)[C@H](C)O2)Oc2ccc(cc2Cl)[C@H]1O |  |  | mouse | intravenous, 10 mg/kg |  | volume of distribution | 0.14 L/kg
C=C(NC(=O)c1csc(-c2nc3c(cc2O)-c2nc(cs2)C(=O)NC(C(C)O)C(=O)NC(=C(C)OC)c2nc(cs2)C(=O)NC2c4nc(cs4)C(=O)NC(COC(=O)c4c5c6c(cccc6n4O)COC(=O)C(OC4CC(C)(O)C(N(C)C)C(C)O4)C2OC5)c2nc-3cs2)n1)C(N)=O (stereo not shown) |  |  | Sprague-Dawley rat, female, plasma | intravenous infusion, 6 mg/kg single dose |  | AUC(0-last) | 2350 ng·h/mL
O=C(O)c1ccc(Nc2c(-c3ccc(CON=CC(=CNc4ccc(Cl)cn4)c4nc5ccccc5o4)cc3)nc3cc(-c4ccccc4)ccn23)cc1 (mixture of isomers) | TDP1 | enzyme activity, inhibitor |  | 100 µM, unpurified compound |  | inhibition | 69.5%
C/C(N)=N/C(=N\S(=O)(=O)c1ccc(C(F)(F)F)cc1)N1C[C@H](c2ccccc2)C(c2ccc(Cl)cc2)=N1 |  |  | male C57BL/6 mouse, lung | intravenous, 10 mg/kg |  | Cmax | 145 µg/mL
CCCCN1C(=O)c2cccc3c(NCCN4CCOCC4)ccc(c23)C1=O |  |  | dioxane |  |  | emission maximum | 504 nm
CC[C@H](C)[C@@H]1NC(=O)[C@H](Cc2ccc(O)cc2)NC(=O)CCCSC[C@@H](C(=O)N(CC(=O)N[C@@H](CC(C)C)C(=O)NCC(N)=O)Cc2ccc(F)cc2)NC(=O)[C@H](CC(N)=O)NC(=O)[C@H](CCC(N)=O)NC1=O |  |  | human | intranasal and intravenous, 400 µg intranasal and 20 µg intravenous |  | adverse drug reactions | 50%
CCCC[N+]1=c2cc3c4cc2[O][Mn-2]1(=[C]=O)(=[C]=O)(=[C]=O)[n+]1ccc(cc1)C(=O)Oc1ccccc1OC(=O)c1cc[n+](cc1)[Mn-2](=[C]=O)(=[C]=O)(=[C]=O)([O]3)[N+]=4CCCC |  |  | PBS with reduced myoglobin | pH 7.4, dark |  | stability time without CO release | ≥ 24 h
C=CC(=O)Nc1cc(Nc2nccc(-c3c[nH]c4ccccc34)n2)c(OC)cc1N(C)CCN(C)C |  | storage stability | human dried blood spots | 5 h, on ice, low QC level |  | recovery | 94.5%
Cc1[nH]c(=O)c(CNC(=O)c2cc(Cl)c3c(c2C)O[C@@](C)([C@H]2CC[C@H](N(C)C)CC2)O3)c(C)c1O |  | radiochromatography | human, feces | oral, 200 mg | relative to: dose | fecal excretion | 7.6% and 4.5% and 5.7% and 5.3%
CN(O)C(=O)CCC(=O)NCCCN(CCCCN(CCCNC(=O)CCC(=O)N(C)O)C(=O)CCC(=O)N(C)O)C(=O)CCC(=O)N(C)O.[89Zr] |  |  | mouse, liver | 1 h |  | tracer uptake | 0.53 %ID/g
COc1cccc(OC)c1-c1cc(C(=O)NC2(C(=O)O)C3CC4CC(C3)CC2C4)nn1-c1ccc(C(=O)N(C)CCCN(C)CCCN(C)C(=O)[C@H](CCCCNC(=O)[C@H](CC(C)C)NC(=O)C2OC2C(=O)O)NC(=O)CN2CCN(CC(=O)[O-])CCN(CC(=O)[O-])CCN(CC(=O)[O-])CC2)cc1C(C)C.[177Lu+3] (mixture of isomers) |  |  | mouse HT-29 xenograft | 24 h, biodistribution | relative to: tumour over spleen | tumour-to-spleen ratio | 12.4
Cc1cnc2nc1Nc1cccc(c1)COC/C=C/COCc1cc(ccc1OCCN1CCOCC1)N2 |  |  | BALB/c mice, rhEPO-induced polycythemia | 100 mg/kg, day 3 |  | body weight | 18.2 g and 19.2 g and 19.9 g and 19.4 g
CC(C)(O)c1ncc([S@](N)(=O)=NC(=O)Nc2c3c(cc4c2CCC4)CCC3)s1 |  | measured: general and administration-site disorders | healthy human volunteers | oral, 3 mg single dose, capsule formulation |  | subjects with adverse events | 17%
COc1cc2oc(-c3ccc(OC(F)(F)F)cc3)cc(=O)c2c(O)c1O |  | cyclic voltammetry | DMSO, 0.1 M Bu4NPF6 | 25 °C |  | half-wave potential | -1.82 V vs Ag/AgCl
CN(C)C(=O)c1cncc(N2Cc3cn(Cc4ccc(F)cc4)nc3C2)n1 |  |  | MDCK-MDR1 |  |  | Papp A→B | 18.9 ×10⁻⁶ cm/s
O=C([O-])CN1CCN(CC(=O)[O-])CCN(CC(CCCc2ccccc2[N+](=O)[O-])N(CC(=O)[O-])CC(=O)[O-])CC1.[90Y+3] (stereo not shown) |  |  | human serum | 14 days, pH 7.0, 37 °C |  | radionuclide release | < 0.5%
CC(C)C[C@@H](NC(=O)[C@H](NC(=O)[C@H]1CCCN1)[C@H](C)O)C(=O)N[C@H](Cc1c[nH]cn1)C(=O)N[C@@H](C(=O)N[C@H](Cc1c[nH]cn1)C(=O)N[C@H](CC(N)=O)C(=O)N[C@H](CCCNC(=N)N)C(=O)N[C@H](CCCNC(=N)N)C(=O)N[C@H](CCCNC(=N)N)C(=O)N[C@H](CCCNC(=N)N)C(=O)N[C@H](CCCNC(=N)N)C(N)=O)[C@H](C)O |  |  | Beagle dog, blood | oral, 3 mg/kg daily, 3 months |  | triglycerides | 3.2 ± 1.8 mmol/L
CC(=O)N1CCN(C(=O)c2ccc(Nc3nccc(-c4ccc(Cl)cc4)n3)cc2)CC1 |  |  | NSG mice | dose not given, day 3 |  | body weight | 25 g and 24.6 g and 23.2 g and 24.8 g
CCCCN1C(=O)c2cccc3c(NCCCN4CCOCC4)ccc(c23)C1=O |  |  | DMF |  |  | emission maximum | 532 nm
O=C(c1ccnc(N2Cc3cn(Cc4ccc(F)cc4)nc3C2)n1)N1CCOCC1 |  | metabolic stability | rat, liver microsomes |  |  | half-life | 1.78 h
COC1C=COC2(C)Oc3c(C)c(O)c4c(c3C2=O)C2=NC3(CCN(CC(C)C)CC3)NC2=C(NC(=O)C(C)=CC=CC(C)C(O)C(C)C(O)C(C)C(OC(=O)Nc2cccnn2)C1C)C4=O (stereo not shown) |  |  | CD-1 mouse, female, plasma | intravenous, 5 mg/kg |  | volume of distribution | 0.5 L/kg

Compound | tested on | assay | test system | conditions | scale | measurement | result
O=C(Nc1cnccc1-c1ccc([18F])nc1)c1ccnc(NC(=O)C2CC2)c1 |  | ex vivo gamma counting | FVB/NJ mice, both sexes, heart | intravenous, 120 min, mean, P-gp inhibitor pretreatment, with: tariquidar 15 mg/kg iv |  | SUV | 0.238
COCC1CN(C2CCN(c3cc(OC)c(Nc4ncc(Br)c(Nc5ccc6c(c5P(C)(C)=O)OCCO6)n4)cc3C)CC2)C1 |  |  | EGFR-mutant NSCLC patients | oral, 90 mg once daily |  | patients with adverse events | 100%
CSCc1cn(-c2cccc(C(=O)N3CCC(c4nc(-c5ccccc5)n[nH]4)CC3)c2)nn1 |  |  | DPBS | 2 µM |  | stability half-life | > 48 h
CCCCN1C(=O)c2cccc3c(NCCCCCN4CCOCC4)ccc(c23)C1=O |  |  | ethyl acetate |  |  | emission maximum | 508 nm
COc1cnc2cccc(N3CCc4c(cc(Cn5ccnc5)cc4-c4cn(C)nc4C(F)(F)F)C3=O)c2c1 |  |  | male CD-1 mouse, plasma | intraperitoneal, 100 mg/kg |  | Tmax | 0.4 h
O=C(Nc1cnccc1-c1ccc([18F])cc1)c1ccnc(NC(=O)C2CC2)c1 |  | ex vivo gamma counting | FVB/NJ mice, both sexes, blood | intravenous, 120 min, mean, P-gp inhibitor pretreatment, with: tariquidar 15 mg/kg iv |  | SUV | 0.28
CCCCN1C(=O)c2cccc3c(NCCCCN4CCOCC4)ccc(c23)C1=O |  |  | methanol |  |  | emission maximum | 532 nm
CSCC[C@H](NC(=O)[C@H](CC(=O)O)NC(C)=O)C(=O)N[C@@H](Cc1ccc(O)cc1)C(=O)N[C@@H](Cc1ccc(O)cc1)C(=O)N[C@@H](CCCNC(=N)N)C(=O)N[C@@H](Cc1ccc(O)cc1)C(=O)N[C@@H](CC(N)=O)C(=O)NCC(=O)N[C@@H](CCCCN)C(=O)N[C@H](C(=O)N[C@@H](Cc1c[nH]c2ccccc12)C(=O)N[C@@H](Cc1c[nH]c2ccccc12)C(=O)N[C@@H](CCCNC(=N)N)C(=O)O)C(C)C |  | circular dichroism | free peptide in solution | concentration not given, 25 °C, no insulin present |  | β-strand content | 38.2%
COc1cccc(OC)c1-c1cc(C(=O)NC2(C(=O)O)C3CC4CC(C3)CC2C4)nn1-c1ccc(C(=O)N(C)CCCN(C)C(=O)[C@H](CCCCNC(=O)[C@H](CC(C)C)NC(=O)C2OC2C(=O)O)NC(=O)CN2CCN(CC(=O)[O-])CCN(CC(=O)[O-])CCN(CC(=O)[O-])CC2)cc1C(C)C.[177Lu+3] (mixture of isomers) |  |  | mouse HT-29 xenograft | 168 h, biodistribution | relative to: tumour over spleen | tumour-to-spleen ratio | 2.17
Cc1noc(C)c1Cn1cc(N2C(=O)CN(Cc3cccc(OS(=O)(=O)O)c3)C2=O)cn1 |  |  | Sprague-Dawley rat, male | oral, 10 mg/kg of parent drug, 0.5 h |  | plasma concentration | 2.6 µg/mL
CCCCN1C(=O)c2cccc3c(NCCCCCCCCN4CCOCC4)ccc(c23)C1=O |  |  | ethyl acetate |  |  | emission maximum | 513 nm
COc1cccc(OC)c1-c1cc(C(=O)NC2(C(=O)O)C3CC4CC(C3)CC2C4)nn1-c1ccc(C(=O)N(C)CCOCCOCCN(C)C(=O)[C@H](CCCCNC(=O)[C@H](CC(C)C)NC(=O)C2OC2C(=O)O)NC(=O)CN2CCN(CC(=O)[O-])CCN(CC(=O)[O-])CCN(CC(=O)[O-])CC2)cc1C(C)C.[177Lu+3] (mixture of isomers) |  |  | mouse HT-29 xenograft | 72 h, biodistribution | relative to: tumour over pancreas | tumour-to-pancreas ratio | 21.1
CC(C(=O)O)n1nc(Cn2cc3cc(OCC[18F])c(Cl)cc3n2)c2ccccc2c1=O (racemic) |  |  | rat, lung | 1 h |  | tracer uptake | 0.2 %ID/g
CCCCN1C(=O)c2cccc3c(NCCCCCCN4CCOCC4)ccc(c23)C1=O |  |  | acetonitrile |  |  | emission maximum | 524 nm
CS(=O)(=O)c1cc(Cl)cc(-c2cc(Cl)c(Cl)cc2Cl)c1Cl |  |  | whole cow milk | 20 nM nominal |  | dose fraction in skim milk | 7.63%
OC1(C(F)(F)F)CCN(c2nc(Nc3ccnc(C(F)(F)F)c3)nc(-c3cccc(C(F)(F)F)n3)n2)C1 (stereo not shown) |  |  | monkey, both sexes, plasma | intravenous, 1 mg/kg |  | AUC(0-inf) | 8910 ± 931 ng·h/mL
C=C[C@]1(C)C[C@@H](OC(=O)CSc2ccc(NC(=O)c3ccco3)cc2)[C@]2(C)[C@H](C)CC[C@]3(CCC(=O)[C@H]32)[C@@H](C)[C@@H]1O |  |  | M. gallisepticum-infected chickens, plasma | intramuscular, 80 mg/kg single dose |  | apparent volume of distribution | 9.9 L/kg
NCCCC[C@H](NC(=O)[C@H](Cc1c[nH]c2ccccc12)NC(=O)[C@H](CCCCN)NC(=O)[C@@H](N)Cc1c[nH]c2ccccc12)C(=O)N[C@@H](Cc1c[nH]c2ccccc12)C(=O)O |  |  | serum | 50% serum |  | time to complete degradation | ≤ 20 min
Cc1ccc2c(c1Br)C(O)(CC(=O)c1ccc3c(c1)OCO3)C(=O)N2 (stereo not shown) | ppa (Escherichia coli, UniProt P0A7A9) | inhibitor, counter-screen, coupling enzyme alone |  |  |  | IC50 | > 30 µM
C=CCn1cc(C=NOCc2ccc3nc(-c4ccccc4)c(Nc4ccc(C(=O)O)cc4)n3c2)c2ccccc21 | TDP1 | enzyme activity, inhibitor |  | 100 µM, unpurified compound |  | inhibition | 22.2%
C=CC(=O)N1CCCC(n2c(=O)c3ncccc3n(Cc3ccc(Oc4ccccc4)cc3)c2=O)C1 (stereo not shown) |  | metabolic stability | male Sprague-Dawley rat, hepatocytes | 1 µM, 30 min |  | compound remaining | 1.2%
